Results gathered from unrelated publications.
Each numbered part is a random draw from the data of one study; scales do not carry over between parts. Positions count from the first letter of the parent shown.

Sample 1
Target: Histone acetyltransferase KAT6A, winged helix 1, GST fusion (KAT6A, Homo sapiens, UniProt Q92794, residues 1-85)
Method: protein binding microarray
Molecule type: double-stranded DNA, one strand shown
Sample: in vitro
Tested at: not given
Setting: 8-mer, flanks averaged, mean of 2 arrays, mostly near background
Relative to: not given
Reading: higher = stronger binding
Quantity: E-score
Residues (chain): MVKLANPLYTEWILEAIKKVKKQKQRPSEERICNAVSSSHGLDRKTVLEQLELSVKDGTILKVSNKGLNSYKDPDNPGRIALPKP
CAAGCATC: -0.0105
CCCTATGC: -0.118
CGGCCGAG: 0.42
ATACACGA: -0.0387
GACTTGAA: -0.224
CGATCACC: 0.0309
AGAGAGGC: -0.356
ATCGGCGG: 0.447
GCATACTA: -0.0464
TCGATTCA: -0.114
ATTCGTTC: -0.218
GACTAGCA: -0.0645
CGTATAGC: 0.203
CCGAGAGG: 0.0659
CCGCTTCC: 0.24
AAACTAAC: -0.106
ACAAGCTA: -0.211
CACCCTGC: -0.0524
ATCTCTCC: -0.0226
AAAGCAAA: -0.24
ACAAGAGT: -0.332

Sample 2
Target: BATF3, bZIP domain (human)
Method: DHFR protein complementation
Sample: yeast
Setting: single substitutions, most at no-binding floor
Relative to: wild-type JUN-FOS pair
Reading: higher = stronger binding
Quantity: binding fitness
Parent: JUN, bZIP domain (human); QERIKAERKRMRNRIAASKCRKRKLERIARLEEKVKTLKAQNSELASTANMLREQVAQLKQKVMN; partner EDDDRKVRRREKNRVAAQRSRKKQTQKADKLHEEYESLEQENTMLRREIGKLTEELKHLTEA
A46C: 0.172 natural log
V56T: 0.0264 natural log
R30A: 0.379 natural log
Q55W: -0.021 natural log
K34L: 0.274 natural log
K34C: 0.215 natural log
M51N: 0.276 natural log
E32K: 0.115 natural log
L31Q: 0.128 natural log
E54H: 0.161 natural log
E32L: 0.153 natural log
N42W: -0.0982 natural log
L45C: -0.165 natural log

Sample 3
Target: Sal-like protein 4, full length isoform B (SALL4, Homo sapiens, UniProt Q9UJQ4-2, residues 1-616)
Method: universal PBM
Molecule type: double-stranded DNA, one strand shown
Sample: in vitro
Tested at: not given
Setting: 8-mer, flanks averaged, mean of replicates
Reading: higher = stronger binding
Quantity: E-score
ATCAAGCA: 0.0485
GGTAAGTA: 0.104
AGTGAGAC: -0.104
CTGTTGTA: 0.0829
GATCCGAA: -0.132
AATGGCAG: 0.0705
GCGCGACA: -0.215
GCTGAGAC: -0.152
ATCTTCAT: 0.232
TCCTCCAA: -0.0486
GTGCTGTA: -0.0203
CTCTGATC: -0.157
ACCGAAGC: -0.216
GTGAACGA: 0.0788
CTAGCAGC: -0.192
CCTCTGTA: 0.122
ATCGGACA: -0.0382
CACGTCTG: 0.105
CTTAAGCC: -0.0781
GAGTAAGA: 0.129
ATTGGACC: -0.118
CAAGATGA: 0.0158
GGCCGACC: -0.34
CTCACAAC: -0.00217
ACTACAGA: 0.208

Sample 4
Target: ABI1, truncated, D143A, DHFR fusion (Arabidopsis thaliana)
Method: DHFR PCA, deep sequencing
Sample: yeast
Setting: methotrexate growth selection, single substitutions
Added: (+)-ABA 58 µM
Relative to: wild-type fitted maximum
Reading: higher = stronger binding
Quantity: relative binding score
Parent: PYL1, truncated, DHFR fusion (Arabidopsis thaliana); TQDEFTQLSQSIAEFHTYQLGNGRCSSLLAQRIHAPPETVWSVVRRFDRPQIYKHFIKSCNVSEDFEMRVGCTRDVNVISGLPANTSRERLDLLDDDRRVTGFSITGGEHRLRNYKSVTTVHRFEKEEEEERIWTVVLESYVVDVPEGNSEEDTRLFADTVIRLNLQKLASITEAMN; partner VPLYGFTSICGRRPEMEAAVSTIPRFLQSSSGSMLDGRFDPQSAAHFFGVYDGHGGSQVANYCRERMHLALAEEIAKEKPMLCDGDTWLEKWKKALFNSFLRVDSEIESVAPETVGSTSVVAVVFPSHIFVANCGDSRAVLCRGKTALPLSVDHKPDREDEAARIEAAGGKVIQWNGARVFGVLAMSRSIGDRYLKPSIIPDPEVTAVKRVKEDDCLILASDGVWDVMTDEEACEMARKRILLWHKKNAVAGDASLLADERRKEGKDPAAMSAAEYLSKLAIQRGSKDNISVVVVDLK
S63V: 81.3%
P37T: 57.5%
Q2R: 84.4%
K168D: 21.9%
E131W: 70.9%
H16F: -12%
S171I: 75.3%
F66Y: 81.4%
R45W: -24.3%
F47Q: 7.13%
I79G: 45.2%
D96S: 29.9%
R49K: 88.3%
E129Q: 95.5%
H55P: 94.9%
D97G: 86.2%
P146K: -0.218%
H110F: -4.03%
V76T: 48.5%
I172H: 68%
D48Q: 21.8%
I57M: 37.2%
I79C: 89.1%
T73Y: 90.4%

Sample 5
Target: CCND3, cyclin fold, Cln2 fusion (human)
Method: yeast growth competition, sequencing
Sample: yeast
Setting: weak parent motif
Relative to: not given
Reading: higher = stronger binding
Quantity: normalised enrichment score
Parent: CUX1 docking peptide (human); SRIRRELFIEEIQ; partner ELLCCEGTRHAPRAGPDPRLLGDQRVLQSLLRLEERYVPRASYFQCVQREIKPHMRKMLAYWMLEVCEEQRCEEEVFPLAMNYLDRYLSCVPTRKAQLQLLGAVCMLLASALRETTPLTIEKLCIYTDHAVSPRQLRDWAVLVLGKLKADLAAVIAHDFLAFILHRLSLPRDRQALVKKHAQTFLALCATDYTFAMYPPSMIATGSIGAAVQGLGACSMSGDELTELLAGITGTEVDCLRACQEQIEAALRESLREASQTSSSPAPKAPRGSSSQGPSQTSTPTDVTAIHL
SAIRRELFIEEIQ [R2A]: -0.00387
SRIRRELAIEEIQ [F8A]: 0.137
ARIRRELFIEEIQ [S1A]: 0.221
SRIRAEAFIEEIQ [R5A L7A]: 0.0775
SRIRKELFIEEIQ [R5K]: 0.365
SRIRKELLIEEIQ [R5K F8L]: 0.291
SRIRRELFIEEAQ [I12A]: -0.0165
SRIARELFIEEIQ [R4A]: 0.0836
SRIRRALFIEEIQ [E6A]: 0.0794

Sample 6
Target: PABPC1L2, full length, GST fusion (mouse, UniProt A0ABA7IW68)
Method: RNAcompete
Molecule type: RNA
Sample: in vitro
Tested at: 20 nM
Setting: 7-mer, probes averaged, single round
Relative to: mean of 7-mers
Reading: higher = stronger binding
Quantity: 7-mer Z-score
Residues (chain): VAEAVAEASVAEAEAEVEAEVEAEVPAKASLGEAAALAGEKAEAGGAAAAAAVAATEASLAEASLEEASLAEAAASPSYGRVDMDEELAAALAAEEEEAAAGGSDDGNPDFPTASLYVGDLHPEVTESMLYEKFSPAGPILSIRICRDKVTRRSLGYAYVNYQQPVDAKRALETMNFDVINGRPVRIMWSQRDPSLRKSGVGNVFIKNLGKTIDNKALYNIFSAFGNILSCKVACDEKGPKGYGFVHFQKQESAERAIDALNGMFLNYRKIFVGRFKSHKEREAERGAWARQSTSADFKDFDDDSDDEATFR
UGCCCGA: -0.251
ACGUCGA: -0.17
GAAGAUG: -0.119
UUAGCCA: -0.117
UCGUGUC: -0.463
CUACUUU: -0.22
CGAACCG: -0.255
AGUGUGU: -0.213
GGUAUGG: 0.0315
GGACUUA: 0.128
UCACAUG: -0.231
CUAGGGU: -0.0047
AUAGACG: -0.0989
GCUUGCG: -0.175
UGACAAC: -0.115
CUUGGGA: 0.282
GGUGCGC: 0.173

Sample 7
Target: Protein C-ets-1 (ETS1, Homo sapiens, UniProt P14921, residues 1-441, Y397A, full length assumed)
Method: protein-binding microarray
Molecule type: double-stranded DNA, one strand shown
Sample: in vitro
Tested at: not given
Setting: k-mer, scored over probes, only values ≥0.25
Reading: higher = stronger binding
Quantity: E-score
Construct (chain): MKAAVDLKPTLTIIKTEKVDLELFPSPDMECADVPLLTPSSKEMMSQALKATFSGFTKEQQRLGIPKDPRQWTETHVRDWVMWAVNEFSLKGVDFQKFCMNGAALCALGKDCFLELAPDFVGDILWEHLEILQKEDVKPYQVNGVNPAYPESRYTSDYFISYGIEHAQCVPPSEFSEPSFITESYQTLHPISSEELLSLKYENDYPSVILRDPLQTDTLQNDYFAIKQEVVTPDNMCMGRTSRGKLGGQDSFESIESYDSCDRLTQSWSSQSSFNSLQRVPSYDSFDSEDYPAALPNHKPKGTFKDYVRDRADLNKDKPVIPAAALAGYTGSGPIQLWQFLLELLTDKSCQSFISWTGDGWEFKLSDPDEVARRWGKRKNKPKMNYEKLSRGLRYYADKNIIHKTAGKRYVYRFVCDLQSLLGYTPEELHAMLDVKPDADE
TTGACAAA: 0.419
AATGGCAT: 0.25
GACAAAAA: 0.372
AATTTGTC: 0.353
CAGCCGGA: 0.251
AACTGTGT: 0.263
ACGACGGA: 0.277
GGAAGTAA: 0.37
TACGGCAA: 0.255
ACTGCCAT: 0.253
CGCAAACA: 0.311
AGGAGGGG: 0.307
TGTACAAA: 0.312
ACATGTCA: 0.265
TATTGGCA: 0.367
CACTTCCG: 0.479
CTTACAAA: 0.26
CGGAAGTA: 0.475
CAAAAATA: 0.256
CGTGACAC: 0.274
AGTTGCAA: 0.258
GTCAAACA: 0.272

A few entries again (sample 3):
AGTGAGAC: -0.104
CTGTTGTA: 0.0829
GATCCGAA: -0.132
AATGGCAG: 0.0705
GCGCGACA: -0.215
GCTGAGAC: -0.152
ATCTTCAT: 0.232
TCCTCCAA: -0.0486
GTGCTGTA: -0.0203
CTCTGATC: -0.157
ACCGAAGC: -0.216
GTGAACGA: 0.0788
CTAGCAGC: -0.192
CCTCTGTA: 0.122
ATCGGACA: -0.0382
CACGTCTG: 0.105
CTTAAGCC: -0.0781
GAGTAAGA: 0.129
ATTGGACC: -0.118
CAAGATGA: 0.0158
GGCCGACC: -0.34
